Measured values of several laboratories.
Compare with care: the assays were run in different laboratories. Numbers after ± are the reported error.
CYP2C19: Cytochrome P450 2C19 (CYP2C19, Homo sapiens, UniProt P33261)
Sequence of UniProt P33261 (whole entry, looked up): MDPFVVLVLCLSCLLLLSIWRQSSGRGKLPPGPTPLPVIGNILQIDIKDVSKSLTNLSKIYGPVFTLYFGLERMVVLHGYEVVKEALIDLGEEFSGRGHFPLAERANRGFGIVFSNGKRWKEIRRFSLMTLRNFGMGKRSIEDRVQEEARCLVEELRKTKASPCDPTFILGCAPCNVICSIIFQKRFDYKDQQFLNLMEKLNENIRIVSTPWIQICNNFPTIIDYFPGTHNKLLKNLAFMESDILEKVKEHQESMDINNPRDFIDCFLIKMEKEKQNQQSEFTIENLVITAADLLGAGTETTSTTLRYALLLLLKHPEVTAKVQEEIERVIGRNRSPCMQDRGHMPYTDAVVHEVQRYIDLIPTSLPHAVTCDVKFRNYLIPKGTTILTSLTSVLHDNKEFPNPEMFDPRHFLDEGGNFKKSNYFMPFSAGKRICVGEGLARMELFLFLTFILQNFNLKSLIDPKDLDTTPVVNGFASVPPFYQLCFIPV
Sequence of UniProt Q80W57 (whole entry, looked up): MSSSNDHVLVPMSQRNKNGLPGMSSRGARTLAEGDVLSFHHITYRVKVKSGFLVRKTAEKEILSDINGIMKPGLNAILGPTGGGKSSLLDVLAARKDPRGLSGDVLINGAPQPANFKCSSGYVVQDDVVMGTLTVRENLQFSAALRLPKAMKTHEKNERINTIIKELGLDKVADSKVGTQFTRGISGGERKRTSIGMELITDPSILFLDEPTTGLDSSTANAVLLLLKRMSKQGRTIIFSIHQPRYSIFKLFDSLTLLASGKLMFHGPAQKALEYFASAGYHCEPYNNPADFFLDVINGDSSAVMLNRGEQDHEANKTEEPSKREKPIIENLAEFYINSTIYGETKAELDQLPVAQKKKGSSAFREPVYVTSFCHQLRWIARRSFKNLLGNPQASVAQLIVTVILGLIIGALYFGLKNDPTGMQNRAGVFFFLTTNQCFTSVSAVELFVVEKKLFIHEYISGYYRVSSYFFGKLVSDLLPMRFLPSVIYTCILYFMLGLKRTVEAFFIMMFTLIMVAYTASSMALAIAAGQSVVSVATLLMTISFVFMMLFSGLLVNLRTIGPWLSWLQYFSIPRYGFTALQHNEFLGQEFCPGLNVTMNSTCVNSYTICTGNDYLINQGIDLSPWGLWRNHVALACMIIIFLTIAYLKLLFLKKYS
Sequence of UniProt P05181 (whole entry, looked up): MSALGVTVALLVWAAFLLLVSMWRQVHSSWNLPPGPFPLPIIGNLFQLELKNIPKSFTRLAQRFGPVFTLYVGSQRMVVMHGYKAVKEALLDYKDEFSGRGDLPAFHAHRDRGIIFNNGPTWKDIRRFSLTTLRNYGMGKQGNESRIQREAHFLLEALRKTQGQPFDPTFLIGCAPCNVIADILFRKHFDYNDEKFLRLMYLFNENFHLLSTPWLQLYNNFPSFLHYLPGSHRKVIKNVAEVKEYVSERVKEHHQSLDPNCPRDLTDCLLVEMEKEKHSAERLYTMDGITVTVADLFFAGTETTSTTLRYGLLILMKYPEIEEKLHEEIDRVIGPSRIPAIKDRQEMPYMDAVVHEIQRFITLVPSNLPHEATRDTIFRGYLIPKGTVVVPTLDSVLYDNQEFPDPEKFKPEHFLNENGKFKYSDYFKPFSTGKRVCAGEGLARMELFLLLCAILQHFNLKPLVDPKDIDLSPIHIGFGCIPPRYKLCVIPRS
Sequence of UniProt P41149 (whole entry, looked up): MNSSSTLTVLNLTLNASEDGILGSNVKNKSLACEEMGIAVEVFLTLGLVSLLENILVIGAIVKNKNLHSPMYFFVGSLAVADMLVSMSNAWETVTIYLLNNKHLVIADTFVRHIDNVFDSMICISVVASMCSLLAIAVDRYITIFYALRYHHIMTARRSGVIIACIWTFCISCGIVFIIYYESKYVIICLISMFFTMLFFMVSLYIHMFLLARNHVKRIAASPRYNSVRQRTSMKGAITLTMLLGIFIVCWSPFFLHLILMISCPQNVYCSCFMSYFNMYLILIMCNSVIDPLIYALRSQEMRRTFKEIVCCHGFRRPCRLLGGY

SMILES	target or system	assay	test system	conditions	how to read	quantity	value
O=C(O)c1cc(/N=N/c2ccc(S(=O)(=O)Nc3ccccn3)cc2)ccc1O	Abcg2 (Rattus norvegicus, UniProt Q80W57)	substrate	male Sprague-Dawley rat, plasma	oral, 2 mg/kg		AUC(0-inf)	223 ± 99 ng·h/mL
CCCC[C@H](NC(C)=O)C(=O)N[C@H]1CCC(=O)NC[C@@H](C(=O)N[C@@H](Cc2c[nH]c3ccccc23)C(N)=O)NC(=O)[C@H](CCCNC(=N)N)NC(=O)[C@@H](Cc2ccccc2)NC(=O)[C@H](Cc2c[nH]cn2)NC1=O			healthy human, both sexes, plasma	subcutaneous, 3.0 mg once daily, day 1, median		Vd/F	261 L
O=C(O)CCCCCCCCCCCCC(=O)O	OATP1B1		human, plasma	concentration not given, 12 h after first cyclosporine dose, genotype TC, added: oral cyclosporine plus pravastatin		trough plasma concentration	44.2 nM
CC1=N[C@]2(C(=O)CO)[C@@H](C[C@H]3[C@@H]4C[C@@H](O)C5=CC(=O)C=C[C@]5(C)[C@H]4[C@@H](O)C[C@@]32C)O1	CYP2C19		pooled human liver microsomes	30 min preincubation, added: S-mephenytoin probe and NADPH		IC50	> 50000 nM
O=C(O)CCCCCCCCCCCCCCC(=O)O	OATP1B1		human, plasma	concentration not given, 12 h after first cyclosporine dose, genotype CC, added: oral cyclosporine plus pravastatin		trough plasma concentration	111 nM
COc1ccccc1N1CCN(C(CNS(=O)(=O)c2ccc(Cl)cc2)c2cccnc2)CC1 (stereo not drawn)	Trypanosoma cruzi	trypomastigote viability	Tulahuen	86.5 µM, 48 h, solid sample		activity	65%
O=c1[nH]c(=O)c(Cc2cccc(C(F)(F)F)c2)c([C@H]2CC[C@H](c3ccccc3)CC2)[nH]1	CYP2C19		human, plasma	oral, 600 mg, day 10, geometric mean, added: fluvoxamine		AUC(0-inf)	14600 ng·h/mL
CC1(C)[C@@H](O[C@H]2O[C@H](C(=O)O)[C@@H](O)[C@H](O)[C@H]2O[C@@H]2O[C@H](C(=O)O)[C@@H](O)[C@H](O)[C@H]2O)CC[C@]2(C)[C@H]3C(=O)C=C4[C@@H]5C[C@@](C)(C(=O)O)CC[C@]5(C)CC[C@@]4(C)[C@]3(C)CC[C@@H]12	Epstein-Barr virus		superinfected Raji cells		relative to: CC50 over EC50	therapeutic index	150
CC(=O)N[C@@H](CO)C(=O)N[C@@H](Cc1ccc(O)cc1)C(=O)N[C@@H](CO)C(=O)N[C@@H](C)C(=O)N[C@@H](CCC(=O)O)C(=O)N[C@@H](Cc1c[nH]cn1)C(=O)N[C@H](Cc1ccccc1)C(=O)N[C@@H](CCCNC(=N)N)C(=O)N[C@@H](Cc1c[nH]c2ccccc12)C(=O)NCC(=O)N[C@@H](CCCCN)C(=O)N1CCC[C@H]1C(=O)N[C@H](C(N)=O)C(C)C	Melanocortin receptor 5 (Mus musculus, UniProt P41149)					EC50	0.053 ± 0.004 nM
C=C	Cytochrome P450 2E1 (CYP2E1, Homo sapiens, UniProt P05181)	ethylene oxide formation, substrate	human, human liver microsomes			Km	16 µM
C=C(C)[C@@H]1CC=C(C=O)CC1	cysteine peptide Ac-RFAACAA-COOH	DPRA RapidFire-MS/MS		24 h, pH 7.5, added: 5.0 µM cysteine peptide		maximal peptide depletion	-109%
CNCc1ccc(-c2[nH]c3cc(F)cc4c3c2CCNC4=O)cc1			human patients, plasma	oral, 300 mg once daily, day 1, single dose, arithmetic mean		half-life	15.2 h
CCOC(=O)c1ccccc1C(=O)OCC	cysteine peptide Ac-RFAACAA-COOH	DPRA RapidFire-MS/MS		24 h, pH 7.5, added: 5.0 µM cysteine peptide		peptide depletion	inactive
CCOc1cccc2sc(N(Cc3cccnc3)C(=O)C3CCCCC3)nc12	Trypanosoma cruzi	trypomastigote viability	Tulahuen	86.5 µM, 48 h, solid sample		activity	96%
COc1ccc(C2CC(c3ccccc3)=NN2c2ccc(S(N)(=O)=O)cc2)cc1 (stereo not drawn)	Staphylococcus aureus		HUVEC, MSSA ATCC 29213	10 µmol/L, 48 h	relative to: vehicle	viable intracellular bacteria	85%

Repeated from above:
SMILES	target or system	assay	test system	conditions	how to read	quantity	value
CC1=N[C@]2(C(=O)CO)[C@@H](C[C@H]3[C@@H]4C[C@@H](O)C5=CC(=O)C=C[C@]5(C)[C@H]4[C@@H](O)C[C@@]32C)O1	CYP2C19		pooled human liver microsomes	30 min preincubation, added: S-mephenytoin probe and NADPH		IC50	> 50000 nM
